Measured values pooled from the literature.
Parts stem from different laboratories: compare values within a part only. Substitutions count along the parent as printed.

Sample 1 — technique: universal PBM; molecule type: double-stranded DNA, one strand shown; medium: in vitro; tested at: not given; reading: higher = stronger binding
Target: Sal-like protein 4, full length isoform B (SALL4, Homo sapiens, UniProt Q9UJQ4-2, residues 1-616)
Setting: 8-mer, flanks averaged, mean of replicates
Strand	E-score
AAGGCCCC	-0.27
AATCCACA	0.223
CATAACCA	0.263
ACGAAGCT	-0.088
AAACTTGA	0.124
AGTGGTGG	-0.0645
TCGGGTAA	0.0932
AAAGTGTG	0.0386
AGCAGCGA	-0.0853
CACCGTCA	-0.0181
CGGCATTC	-0.135

Sample 2 — technique: RNA Bind-n-Seq; molecule type: RNA; medium: in vitro; tested at: 100 nM; relative to: input RNA pool; reading: higher = stronger binding
Target: RING finger protein unkempt homolog, zinc fingers 1-6, SBP tag (UNK, Homo sapiens, UniProt Q9C0B0, residues 30-357)
Chain of UniProt Q9C0B0 (30-357, looked up): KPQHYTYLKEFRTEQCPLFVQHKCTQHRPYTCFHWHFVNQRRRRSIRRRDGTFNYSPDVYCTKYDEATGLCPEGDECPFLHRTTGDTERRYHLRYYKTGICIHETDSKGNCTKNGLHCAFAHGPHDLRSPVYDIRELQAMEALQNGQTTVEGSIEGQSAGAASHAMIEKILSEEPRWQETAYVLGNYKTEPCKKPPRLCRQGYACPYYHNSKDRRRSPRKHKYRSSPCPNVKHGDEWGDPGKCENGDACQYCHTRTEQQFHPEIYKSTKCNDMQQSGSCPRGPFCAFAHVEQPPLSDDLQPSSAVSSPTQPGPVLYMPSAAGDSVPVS
Setting: RNA with constant flanks, vertebrate orthologous sites, ends assumed
Shared flanks, not repeated: GGGAGUUCUACAGUCCGACGAUC … CAACAGAGGAUUGAGCAUCA
Strand	bound/input enrichment
CGUUUCCUUUUUGUAGGUACCAUUGCCCAAUGCCCAAGAUUUUUUAUGUGCAGUUGACUGUAGGAAAUAAUGAAUUCUUCGGUGAAGGGAAGACUCGCCAAGCUGCCAGACACAAUGCUG	0.585 ratio
GAUUUGGACCUUGGAGCUGAACCAGGGAGCUAGCAAAAGUAAAGCAGACUUGUAAAAUUAUAGCCAUAUGCAGCUGCACAACAACAGUACUACCACUAGCAGCUGUGUUAAAGUAUUUAU	0.686 ratio
AUGCAUUUUGCCACUUGGAUGUGGUCUGCAUGGAAAGCUUCUGGCCUCUUCACAAUACCAAUUUAAUAUGUUUUUUUUUUAAGAUGUUAGGACUUAACUGAAUUUACUAAAAUGUAACUA	0.524 ratio
GAUCUGGACCUCGGAGCAGAGCUAUGGAGCUGACUAAAGUAAAGCAGACCUGUAAACUUGUAGCCAUAGGUAGUUGCACAACGACAGUAUCAGCAGAGCAGCUGAGCUAAAGUAUUUAUA	0.372 ratio
GCGGGGAUGGCCCCAUCCCACCACUGUUUAUUCUGUAAACUUCAACCUGUACAUAACGUUUAGCAUUCCUAUUGUAACAAAAUUAAUUUUUACAAAAUAAAUUAUAUUUCCUAGUCUAAU	0.632 ratio
GUCCCCUGAGCCGGGACAGAUUUUUUUUUUAACGUCUUGAAACUUAAAACUCUGUGCUUGUAGGAGACUGUAACCUUUUUGUCUUUUUAAAAAAAACAAUCUCCACCUCCAGUGGCUGUG	0.42 ratio
GUAUAUAAAUUACCCAAGGCAGUGACCAGCUUUAUAUAUACAUGUGUACAUAUAUAUAUCUUGUCGGUUUAAAAAUCAUCUACAUUUAUUUAAAGUUCUAUAUUGGAUUGUUUGCUCUGA	0.751 ratio
UAUGGGAAACCUCGCAGAGUUGAAAUAAUGGAAGAGGAAAGUGAAUAGUAAUCUUCAUUUUAGUAUUUAUGCUUAGAUGUGAAAAUAAAUGUUAUUUGUUGAUCAUUUCUAUAAUCCAGA	0.636 ratio
AUUGACAAUGAAAAGAGCCAAGCAGUAGCAUUUUGUUUUUUUUAUAAAUGUAAAAAUUAGAUUCACUUUGUUUCCUAUUCAGUUUUAAAAAUAAAAAUACCUCAGUGCUGUGUUUCCCAG	0.555 ratio
CAUGGGGACUACUCUGGGGAGCGCUGGACACUUAGCAUUGUUUGAUUUAUGACCUUGACAAUAGAUAGGCUUGUGGGGUUUUUUGUUUUUUAAUUUAAUGAUAUUAAAACUUAAUUCACU	1.26 ratio
CUGUGAGGGUCUACUGACCACUCACUGUUAUAUCUGGGUAUAUCUGUAAACACUUUUGUCCCUAGUCUUUCUUGUACAAUUGAUGUUCUUCAAAAUCGUUAAUGUAUGACAGGGCUUAUG	0.287 ratio

Sample 3 — target: CCNB2, cyclin fold, Cln2 fusion (human); technique: yeast growth competition, sequencing; medium: yeast; setting: weak parent motif; relative to: not given; reading: higher = stronger binding
Starting sequence: SLBP docking peptide (human); ARYKRKLLINDFG; partner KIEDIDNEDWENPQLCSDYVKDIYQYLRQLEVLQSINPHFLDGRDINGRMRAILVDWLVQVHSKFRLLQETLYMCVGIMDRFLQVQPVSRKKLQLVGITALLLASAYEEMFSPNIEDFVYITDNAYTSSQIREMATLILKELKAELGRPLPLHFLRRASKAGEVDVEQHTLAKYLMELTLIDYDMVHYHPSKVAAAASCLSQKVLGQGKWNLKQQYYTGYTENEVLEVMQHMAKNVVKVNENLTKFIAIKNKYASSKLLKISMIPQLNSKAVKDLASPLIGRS
Change	normalised enrichment score
F12L	0.806
I9T	0.529
D11L	0.274
L7K	0.695
K6H	-0.218
I9D	0.375
I9E	0.509
L8W	1.29
N10M	0.288
L7S	0.17
Y3N	0.476
Y3K	-0.0816
K6R	0.49

Mixed results
Molecule	target	assay	test system	setting	how to read	quantity	result
PhoQ, residues 284 288 289 292 302 303 NLAAMI	PhoP, residues 12 14 15 18 19 TTLRV (Escherichia coli, UniProt P23836)	Sort-seq, measured: YFP reporter	E. coli	PhoQ-PhoP variant library, added: 10 µM Mg2+	relative to: high Mg2+ state, higher = stronger signaling	fold induction	11.1

For quick reference, copied from above (sample 2):
Strand	bound/input enrichment
UAUGGGAAACCUCGCAGAGUUGAAAUAAUGGAAGAGGAAAGUGAAUAGUAAUCUUCAUUUUAGUAUUUAUGCUUAGAUGUGAAAAUAAAUGUUAUUUGUUGAUCAUUUCUAUAAUCCAGA	0.636 ratio
AUGCAUUUUGCCACUUGGAUGUGGUCUGCAUGGAAAGCUUCUGGCCUCUUCACAAUACCAAUUUAAUAUGUUUUUUUUUUAAGAUGUUAGGACUUAACUGAAUUUACUAAAAUGUAACUA	0.524 ratio
GAUCUGGACCUCGGAGCAGAGCUAUGGAGCUGACUAAAGUAAAGCAGACCUGUAAACUUGUAGCCAUAGGUAGUUGCACAACGACAGUAUCAGCAGAGCAGCUGAGCUAAAGUAUUUAUA	0.372 ratio
CGUUUCCUUUUUGUAGGUACCAUUGCCCAAUGCCCAAGAUUUUUUAUGUGCAGUUGACUGUAGGAAAUAAUGAAUUCUUCGGUGAAGGGAAGACUCGCCAAGCUGCCAGACACAAUGCUG	0.585 ratio
AUUGACAAUGAAAAGAGCCAAGCAGUAGCAUUUUGUUUUUUUUAUAAAUGUAAAAAUUAGAUUCACUUUGUUUCCUAUUCAGUUUUAAAAAUAAAAAUACCUCAGUGCUGUGUUUCCCAG	0.555 ratio
